Assay results from different studies.
Compare with care: the assays were run in different laboratories.
Sequence of UniProt Q9HCP0 (whole entry, looked up): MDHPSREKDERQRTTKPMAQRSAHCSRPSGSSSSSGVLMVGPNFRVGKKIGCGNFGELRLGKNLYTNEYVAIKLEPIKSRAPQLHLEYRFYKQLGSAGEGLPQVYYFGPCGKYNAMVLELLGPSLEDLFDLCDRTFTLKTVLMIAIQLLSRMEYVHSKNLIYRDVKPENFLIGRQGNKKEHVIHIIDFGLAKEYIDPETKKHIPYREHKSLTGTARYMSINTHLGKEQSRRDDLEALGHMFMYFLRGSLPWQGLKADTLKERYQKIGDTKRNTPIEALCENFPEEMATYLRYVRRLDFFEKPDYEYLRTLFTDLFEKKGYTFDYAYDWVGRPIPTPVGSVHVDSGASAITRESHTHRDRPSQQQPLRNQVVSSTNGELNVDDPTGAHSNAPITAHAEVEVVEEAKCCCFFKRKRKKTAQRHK
Sequence of UniProt Q8NEB9 (whole entry, looked up): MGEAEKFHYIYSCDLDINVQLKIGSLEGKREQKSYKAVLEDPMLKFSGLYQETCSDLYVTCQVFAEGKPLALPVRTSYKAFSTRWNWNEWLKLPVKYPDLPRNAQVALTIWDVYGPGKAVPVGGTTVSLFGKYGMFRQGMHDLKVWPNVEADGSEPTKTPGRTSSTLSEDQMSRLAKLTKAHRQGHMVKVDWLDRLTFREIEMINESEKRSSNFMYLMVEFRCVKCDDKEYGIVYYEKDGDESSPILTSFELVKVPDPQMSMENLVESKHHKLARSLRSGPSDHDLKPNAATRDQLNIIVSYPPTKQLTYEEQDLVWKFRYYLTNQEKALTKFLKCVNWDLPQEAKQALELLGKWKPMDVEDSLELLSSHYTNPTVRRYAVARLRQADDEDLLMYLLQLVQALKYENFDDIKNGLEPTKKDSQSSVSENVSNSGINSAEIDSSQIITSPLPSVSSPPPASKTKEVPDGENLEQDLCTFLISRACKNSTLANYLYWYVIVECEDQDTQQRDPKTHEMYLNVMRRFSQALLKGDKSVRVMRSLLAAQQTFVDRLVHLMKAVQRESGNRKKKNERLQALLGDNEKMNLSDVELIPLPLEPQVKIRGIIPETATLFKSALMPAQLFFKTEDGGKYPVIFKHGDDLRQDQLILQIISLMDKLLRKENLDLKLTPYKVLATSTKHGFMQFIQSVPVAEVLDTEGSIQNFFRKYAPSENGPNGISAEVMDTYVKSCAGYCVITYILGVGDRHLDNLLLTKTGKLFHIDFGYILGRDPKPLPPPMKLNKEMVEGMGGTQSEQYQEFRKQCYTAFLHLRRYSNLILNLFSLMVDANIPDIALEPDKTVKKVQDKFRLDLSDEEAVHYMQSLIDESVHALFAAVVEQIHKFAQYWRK
Sequence of UniProt P08631 (whole entry, looked up): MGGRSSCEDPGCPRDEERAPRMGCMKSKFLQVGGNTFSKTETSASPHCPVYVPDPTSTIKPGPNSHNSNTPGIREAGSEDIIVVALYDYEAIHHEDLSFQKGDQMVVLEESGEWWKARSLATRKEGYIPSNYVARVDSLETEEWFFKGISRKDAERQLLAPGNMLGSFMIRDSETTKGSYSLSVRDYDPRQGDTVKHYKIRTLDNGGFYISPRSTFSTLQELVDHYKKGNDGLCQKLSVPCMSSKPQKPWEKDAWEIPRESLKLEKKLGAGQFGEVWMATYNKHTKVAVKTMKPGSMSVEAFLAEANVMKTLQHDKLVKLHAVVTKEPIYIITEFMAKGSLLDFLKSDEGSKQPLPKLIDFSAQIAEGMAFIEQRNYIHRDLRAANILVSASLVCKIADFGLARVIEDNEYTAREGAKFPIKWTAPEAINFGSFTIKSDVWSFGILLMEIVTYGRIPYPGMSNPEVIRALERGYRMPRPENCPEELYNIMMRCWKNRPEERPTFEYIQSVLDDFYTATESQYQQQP
Sequence of UniProt Q9NYY3 (whole entry, looked up): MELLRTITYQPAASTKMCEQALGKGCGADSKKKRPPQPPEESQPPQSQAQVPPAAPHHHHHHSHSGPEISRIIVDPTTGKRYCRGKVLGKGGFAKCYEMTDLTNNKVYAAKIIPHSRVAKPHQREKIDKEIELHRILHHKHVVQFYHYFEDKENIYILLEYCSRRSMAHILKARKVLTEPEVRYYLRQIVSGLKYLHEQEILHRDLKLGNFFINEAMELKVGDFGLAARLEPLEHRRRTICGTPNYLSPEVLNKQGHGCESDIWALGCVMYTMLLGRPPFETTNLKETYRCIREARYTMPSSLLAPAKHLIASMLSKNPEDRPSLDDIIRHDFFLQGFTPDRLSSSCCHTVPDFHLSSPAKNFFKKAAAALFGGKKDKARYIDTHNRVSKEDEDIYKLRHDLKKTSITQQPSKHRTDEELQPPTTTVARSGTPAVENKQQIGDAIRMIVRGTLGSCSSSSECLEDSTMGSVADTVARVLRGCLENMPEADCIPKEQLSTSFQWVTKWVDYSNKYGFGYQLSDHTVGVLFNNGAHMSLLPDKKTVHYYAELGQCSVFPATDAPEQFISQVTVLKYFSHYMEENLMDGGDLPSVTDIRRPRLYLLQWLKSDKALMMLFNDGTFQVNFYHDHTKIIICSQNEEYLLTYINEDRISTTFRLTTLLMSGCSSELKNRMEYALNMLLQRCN
Sequence of UniProt Q9H0K1 (whole entry, looked up): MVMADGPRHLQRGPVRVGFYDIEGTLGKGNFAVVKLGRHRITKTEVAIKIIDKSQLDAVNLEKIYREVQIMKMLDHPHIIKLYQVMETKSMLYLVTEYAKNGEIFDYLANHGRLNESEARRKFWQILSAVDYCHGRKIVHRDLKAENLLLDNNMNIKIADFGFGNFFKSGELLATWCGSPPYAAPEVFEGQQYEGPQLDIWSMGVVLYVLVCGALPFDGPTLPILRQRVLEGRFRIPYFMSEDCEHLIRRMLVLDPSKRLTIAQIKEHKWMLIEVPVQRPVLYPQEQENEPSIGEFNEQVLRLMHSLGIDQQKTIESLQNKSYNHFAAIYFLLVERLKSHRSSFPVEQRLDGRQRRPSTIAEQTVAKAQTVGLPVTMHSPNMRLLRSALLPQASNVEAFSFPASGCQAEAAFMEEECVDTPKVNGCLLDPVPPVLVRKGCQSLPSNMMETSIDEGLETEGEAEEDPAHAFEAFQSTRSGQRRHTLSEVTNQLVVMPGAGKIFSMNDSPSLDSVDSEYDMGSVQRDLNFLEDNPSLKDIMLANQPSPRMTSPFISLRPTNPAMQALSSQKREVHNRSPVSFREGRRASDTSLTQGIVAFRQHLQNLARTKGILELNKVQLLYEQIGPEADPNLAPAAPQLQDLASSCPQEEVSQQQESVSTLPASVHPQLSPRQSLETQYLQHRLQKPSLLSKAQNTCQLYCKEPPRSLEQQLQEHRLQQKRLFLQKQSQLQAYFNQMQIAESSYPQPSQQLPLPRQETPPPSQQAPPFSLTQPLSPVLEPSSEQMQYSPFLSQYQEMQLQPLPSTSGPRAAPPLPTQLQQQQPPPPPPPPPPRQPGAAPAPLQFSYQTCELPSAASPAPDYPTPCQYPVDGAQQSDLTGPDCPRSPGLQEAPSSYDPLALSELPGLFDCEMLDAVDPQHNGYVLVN

Compound | target | test | test system | conditions | inhibition
CN(C)[C@H]1C[C@@]23CC[C@@]4(O2)C(=CC[C@]2(C)[C@@H](c5ccc6ccncc6c5)CC[C@H]24)C=C3[C@@H](O)[C@@H]1O | PIK3C3 (Homo sapiens, UniProt Q8NEB9) | ATP probe labelling, inhibitor, KiNativ profiling |  | 1 µM | -4.6%
CS(C)(=O)=Nc1ccc(-c2ccc(-c3nc4cc(O[C@@H]5CO[C@H]6[C@@H]5OC[C@H]6O)[nH]c4cc3F)cc2)cc1 | myosin light chain kinase human | enzyme activity, inhibitor |  | 10 µM | 15%
O=C(O)c1ccccc1/C=N/Nc1nc(-c2ccccc2Cl)cs1 | HCK (Homo sapiens, UniProt P08631) | enzyme activity, inhibitor |  | 1 µM | -10.3%
C[C@H](NCc1ccc(-c2ccc(C(F)(F)F)cc2)cc1)C(N)=O | L-type calcium channel phenylalkylamine site, rat | binding, radioligand binding | biochemical | 1 µM, with: [3H]desmethoxyverapamil 0.40 nM | 16%
CN(/N=C/c1ccccc1C(=O)O)c1nc(-c2ccccc2Cl)cs1 | CSNK1G1 (Homo sapiens, UniProt Q9HCP0) | enzyme activity, inhibitor |  | 1 µM | -6.17%
CC(C)[C@H]1NC(=O)C[C@H]2/C=C/CCSSC[C@@H](NC1=O)C(=O)N[C@H](Cc1cccc3ccccc13)C(=O)NCC(=O)O2 | SIK2 (Homo sapiens, UniProt Q9H0K1) | enzyme activity, inhibitor |  | 10 µM | -4.5%
O=C(CN1CN(c2ccccc2)C2(CCN(C(=O)c3cnc4[nH]ncc4c3)CC2)C1=O)NCC(F)(F)F | PLK2 (Homo sapiens, UniProt Q9NYY3) | inhibitor |  | concentration not given | < 50%
COc1ccc(F)cc1S(=O)(=O)Nc1cnc2c(c1)C(=O)NCCO2 | L-type calcium channel Dihydropyridine site | radioligand binding |  | 10 µM | -12%

Some of these lines once more:
Compound | target | test | test system | conditions | inhibition
O=C(O)c1ccccc1/C=N/Nc1nc(-c2ccccc2Cl)cs1 | HCK (Homo sapiens, UniProt P08631) | enzyme activity, inhibitor |  | 1 µM | -10.3%
